Results gathered from unrelated publications.
Compare with care: the assays were run in different laboratories.

Compound | cell line | test | conditions | IC50
Nn1c(SCC(=O)Nc2ccccc2Cl)nnc1-c1ccc(NC(=O)c2cccnc2)cc1 | RAW264.7 | reactive oxygen species, inhibitor, fluorescence | LPS-stimulated | 0.07 µM
Cc1cc(C(=O)/C(=C\c2ccc(C)c(Cl)c2)c2ccc(C)c(Cl)c2)c(C(=O)N2CCCCC2)c(=O)[nH]1 | A-375 | cell growth or viability, MTT | 72 h | > 10 µM
COc1ccc(CNC(=O)c2cc(O)c3cc(OC)cc(OC)c3c2)cc1 | C26, HepG2, MCF7 | cytotoxicity, MTT | range over three cell lines | 14.5 to 25.1 µM
CC1COc2c(N3CCN(C)CC3)c(F)cc3c(=O)c(C(=O)[O-])cn1c23.Cc1ccc(C(C)C)cc1.[Cl-].[Ru+2] (stereo not shown) | SW480 | cell growth or viability, MTT | 96 h | 225 µM
CCCCCCCCCCCCCC(=O)OC[C@H](COP(=O)([O-])OCC[N+](C)(C)C)OC(=O)CCCCCCCCCCCCC | NIH 3T3 | cell viability, MTT | concentration not given | > 250 µM
O=C1C(n2nc(-c3c(O)c4ccccc4oc3=O)cc2-c2ccc(Cl)cc2)c2ccccc2N1Cc1ccccc1 (stereo not shown) | A-375 | cytotoxicity, SRB | 72 h | 4.6 µM
CCCCCOC(=O)Nc1nc(=O)n([C@@H]2O[C@H](C)[C@@H](O)[C@H]2O)cc1F | BXPC-3 | cell growth or viability, MTT | 72 h | > 200 µM
Cc1ccc(-c2cc(C(F)(F)F)nn2-c2ccc(S(N)(=O)=O)cc2)cc1 | RAW264.7 | TNF-α release, inhibitor, ELISA | LPS-stimulated | 5.55 µM
C=CCN(CC=C)C(=S)[S][Sn]([c]1ccccc1)([c]1ccccc1)[c]1ccccc1 | WIL2-NS | cell growth or viability, MTT | – | 0.2 µM
O=c1c(/C=C/c2ccccc2F)nc2ccccc2n1Cc1ccccc1 | HeLa 229 | cell growth or viability, MTT | 72 h | > 50 µM
Nn1c(SCC(=O)Nc2ccc(F)cc2)nnc1-c1ccc(NC(=O)c2cccnc2)cc1 | RAW264.7 | TNF-α release, inhibitor, ELISA | LPS-stimulated | 7.08 µM
O=C1C(n2nc(-c3c(O)c4ccccc4oc3=O)cc2-c2ccc(Br)cc2)c2ccccc2N1Cc1ccccc1 (stereo not shown) | A-375 | cell growth or viability, SRB | 72 h | 4.84 µM
O=C(CSc1nnc(-c2ccc(NC(=O)c3cccnc3)cc2)o1)Nc1ccc(F)cc1 | RAW264.7 | TNF-α release, inhibitor, ELISA | LPS-stimulated | 3.37 µM
Oc1ccc(/C=C/c2cc(O)cc(O)c2)cc1 | HL-60 | reactive oxygen species, inhibitor, fluorescence | – | 0.28 µg/mL
CC(C)C[C@H]1NC(=O)[C@H](CC(=O)O)NC(=O)CNC(=O)[C@H](CCCNC(=N)N)NC(=O)[C@H](C)NC1=O | WM-115 | cell adhesion, inhibitor | 1 h, with: immobilized CagL Q40A mutant | 1.65 µM
O=C(CSc1nnc(-c2ccc(NC(=O)c3cccnc3)cc2)o1)Nc1cccc(Br)c1 | RAW264.7 | IL-6 release, inhibitor, ELISA | LPS-stimulated | 1.93 µM
C=C1C[C@H](O)[C@H](Br)C(C)(C)[C@@]12CCC(C)=C(Cl)C2 | NIH/3T3 eIF4A1 knockdown | cell viability | 5 days | 2.38 µM
O=C(NCCCl)Nc1ccc(S(=O)(=O)Oc2cnccc2I)cc1 | MOLM-13 | cell growth or viability, MTT | 48 h | 0.6 µM
O=C(O)Cc1ccccc1Nc1c(Cl)cccc1Cl | RAW264.7 | reactive oxygen species, inhibitor, fluorescence | LPS-stimulated | 25.4 µM
CC(C)(C)OC(=O)NCC(=O)OC1CCC2(C)C(C(O)CC3(C)C2CC(O)C2C(C4(C)CCCC(C)(C)O4)CCC23C)C1(C)C (stereo not shown) | Hep3B | HRE reporter gene, inhibitor | 24 h, hypoxia | < 0.3 µM
CC(C)=CCc1c(O)cc(/C=C/c2ccccc2)cc1O | HL-60 | ROS generation, inhibitor, DCFH-DA | with: PMA | > 25 µg/mL
Nn1c(SCC(=O)Nc2cccc(Br)c2)nnc1-c1ccc(NC(=O)c2cccnc2)cc1 | RAW264.7 | reactive oxygen species, inhibitor, fluorescence | LPS-stimulated | 9.77 µM

Compound | cell line | test | conditions | IC50
O=C1O[C@H]([C@@H](O)CO)C(O)=C1O | SH-SY5Y | cell growth or viability, SRB | 24 h | > 200 µM
CCCCNc1ccc(C(=O)O)c(OC)c1 | ventricular myocytes R176Q mouse | Ca2+ spark frequency | 2 h, with: isoproterenol 100 nM | 0.2 µM
O=C1C(=Cc2ccccc2)CN(C(=O)C#CC(=O)N2CC(=Cc3ccccc3)C(=O)C(=Cc3ccccc3)C2)CC1=Cc1ccccc1 | Molt4/C8 | cell growth or viability | – | 1.5 µM
Cn1c(=O)c(/C=C/c2ccccc2)nc2ccccc21 | HeLa 229 | cell growth or viability, MTT | 72 h | 19.1 µM
Cc1c(-c2ccc(-c3ccccc3F)cc2)nc2ccc(F)cc2c1C(=O)O | MOLM-13 | cell growth or viability, MTT | 48 h | 0.1 µM
COc1cccc2c1c(O)c(C(=O)N(c1ccc(C(F)(F)F)cc1)C1CCCCC1)c(=O)n2C | LNCaP | nuclear HIF-1α level, immunoblot, item: HIF-1α | normoxia and hypoxia | 1 µM
CNC(=O)c1cc(Oc2ccc(NC(=O)Nc3ccc(Cl)c(C(F)(F)F)c3)cc2)ccn1 | MHCC97H with DHFR knockdown | cell viability, MTT | – | 0.13 µM
CC(=O)c1c(C)c2cnc(Nc3ccc(N4CCNCC4)cn3)nc2n(C2CCCC2)c1=O | COLO 205 | cell growth or viability | 6 days | 0.11 µM
O=C1Nc2ccc(Cl)cc2C1n1nc(-c2c(O)c3ccccc3oc2=O)cc1-c1ccc(Br)cc1 (stereo not shown) | A-375 | cell growth or viability, SRB | 72 h | 6.25 µM
O=c1[nH]c2ccccc2nc1/C=C/c1ccccc1 | HeLa 229 | cell growth or viability, MTT | 72 h | > 50 µM
O=c1c2ccccc2c(-c2nnc(SCNc3ccc(Cl)cc3)o2)nn1CNc1ccc(Cl)cc1 | WI-38 | cell growth or viability, MTT | 48 h | 51.4 µM
O=C(NCCCl)Nc1ccc(S(=O)(=O)Oc2cccnc2I)cc1 | MOLM-13 | cell growth or viability, MTT | 48 h | 1.5 µM
O=c1[nH]nc(-c2nnc(SCc3ccccc3)o2)c2ccccc12 | WI-38 | cell growth or viability, MTT | 48 h | 42.2 µM
COc1ccc2c(c1)c(CC(=O)OC[C@@H](O)COP(=O)([O-])OCC[N+](C)(C)C)c(C)n2C(=O)c1ccc(Cl)cc1 | MCF-10A | cell growth or viability, SRB | 72 h | 6.9 µM
O=C1Nc2ccc(OC(F)(F)F)cc2C1n1nc(-c2c(O)c3ccccc3oc2=O)cc1-c1ccc(F)cc1 (stereo not shown) | A-375 | cell growth or viability, SRB | 72 h | 0.96 µM
CC(=O)c1ccc(NC(=O)CSc2nnc(-c3n[nH]c(=O)c4ccccc34)o2)cc1 | WI-38 | cell growth or viability, MTT | 48 h | 35.4 µM
C=C1[C@H](CO)[C@@H](O)C[C@@H]1n1cnc2c(=O)[nH]c(N)nc21 | HepG2.4D14 | cell growth | 96 h | 0.14 µM
Cn1c(=O)c(/C=C/c2ccccc2Br)nc2ccccc21 | HeLa 229 | cell growth or viability, MTT | 72 h | 27.5 µM
Cc1cc(O)c2c(c1)C(=O)c1cc(O)cc(O)c1C2=O | U-937 | cell growth or viability, ATP luminescence | 24 h | 7 µM
Oc1ccc(/C=C/c2ccccc2)cc1O | HL-60 | reactive oxygen species, inhibitor, fluorescence | – | 20 µg/mL
COCC(=O)N1CCc2[nH]c3c(Cl)c(Cl)ccc3c2[C@@H]1C | THP1-Dual | ISG luciferase reporter, inhibitor | with: dsDNA transfection | ~3 µM

A few entries again:
Compound | cell line | test | conditions | IC50
Oc1ccc(/C=C/c2cc(O)cc(O)c2)cc1 | HL-60 | reactive oxygen species, inhibitor, fluorescence | – | 0.28 µg/mL
CC(C)C[C@H]1NC(=O)[C@H](CC(=O)O)NC(=O)CNC(=O)[C@H](CCCNC(=N)N)NC(=O)[C@H](C)NC1=O | WM-115 | cell adhesion, inhibitor | 1 h, with: immobilized CagL Q40A mutant | 1.65 µM
O=C(CSc1nnc(-c2ccc(NC(=O)c3cccnc3)cc2)o1)Nc1cccc(Br)c1 | RAW264.7 | IL-6 release, inhibitor, ELISA | LPS-stimulated | 1.93 µM
